Measurements of several laboratories.
Lines come from different studies, so protocols differ. ± gives the spread as reported.

O=C(CN1CCCCC1)Nc1ccc([C@H]2[C@@H](F)[C@@H](F)C[C@@H](F)[C@H]2F)cc1  hepatic clearance (cryopreserved rat hepatocytes; 1 µM): 34 mL/min/kg
O=C(Nc1cnccc1-c1ccc([18F])cc1)c1ccnc(NC(=O)C2CC2)c1  mean SUV (ex vivo gamma counting; GSK-3β transgenic mice, early-stage, brain stem; intravenous, 120 min, with: tariquidar 15 mg/kg iv): 0.24
COc1ccc(-c2ccc(C3CCCCC3)cc2)cc1OC  hepatic clearance (hepatocyte stability; cryopreserved mouse hepatocytes; 1 µM): 34 mL/min/kg
CCCNC(=O)[C@H]1O[C@@H]1C(=O)N[C@H](C(=O)N1CCC[C@H]1C(=O)OCC1=C2C(C)=CC(C)=[N+]2[B-](C)(C)n2c(C)cc(C)c21)[C@@H](C)CC  photodecomposition quantum yield (Nd:YAG laser irradiation; methanol; irradiation at 532 nm): 2.46 ± 0.19%
CCCC[C@H](NC(=O)CNC(=O)CNC(=O)[C@H](CCCCNC(=O)[C@H](CC(=O)O)NC(=O)C(C)c1ccc(CC(C)C)cc1)NC(=O)CN1CCN(CC(=O)O)CCN(CC(=O)O)CCN(CC(=O)O)CC1)C(=O)N[C@H]1CC(=O)NCCCC[C@@H](C(N)=O)NC(=O)[C@H](Cc2c[nH]c3ccccc23)NC(=O)[C@H](CCCNC(=N)N)NC(=O)[C@@H](Cc2ccccc2)NC(=O)[C@H](Cc2c[nH]cn2)NC1=O (stereo partly drawn) [lutetium-177 labelled]  urinary excretion (C57 mouse, urine; 2 h): 75.4 ± 4.23%
CC[C@H](C)[C@H](NC(=O)[C@@H](NC(=O)[C@H](CCCCN)NC(=O)[C@@H](NC(=O)[C@@H]1CCCN1[C@@H]1CN(C(=O)[C@@H](NC(=O)[C@@H](NC(=O)[C@@H](NC(=O)[C@@H](NC(=O)[C@@H](NC(=O)[C@@H](N)CCCCN)C(C)C)C(C)C)C(C)C)[C@@H](C)CC)[C@@H](C)O)CC[C@H]1NS(=O)(=O)c1ccc(C)cc1)[C@@H](C)O)C(C)C)C(=O)N[C@@H](CC(C)C)C(=O)N[C@@H](Cc1c[nH]cn1)C(N)=O  helix content (CD spectroscopy; 20 mM phosphate buffer; 125 µM, 37 °C): 11.7%
C=CC(=O)Nc1cc(Nc2nccc(-c3cn(C)c4ccccc34)n2)c(OC)cc1N(C)CCNC  percentage recovery (storage stability; human dried blood spot samples; 30 d, -80 °C, LQC level; reference: nominal concentration): 47.1%
COc1cccc(OC)c1-c1cc(C(=O)NC2(C(=O)O)C3CC4CC(C3)CC2C4)nn1-c1ccc(C(=O)NCCNC(=O)[C@H](CCCCNC(=O)[C@H](CC(C)C)NC(=O)C2OC2C(=O)O)NC(=O)CN2CCN(CC(=O)[O-])CCN(CC(=O)[O-])CCN(CC(=O)[O-])CC2)cc1C(C)C.[177Lu+3] (mixture of isomers)  tumour-to-blood ratio (mouse, HT-29 xenograft; 24 h post injection, biodistribution; reference: tumour over blood uptake): 11.2
COC(=O)[C@@]1(C)C=C(C(=O)Nc2cccc(C(=O)Nc3ccc(Nc4nccc(-c5cccnc5)n4)c(C)c3)c2)C(=O)CC1  compound remaining (Wistar rat, male, plasma; 1 µM, 20 min): 32.5%
C=Cc1cccc([B-]23OC(=O)C(c4ccccc4)=N[N+]2=Cc2ccc(N(CC)CC)cc2O3)c1 (stereo not drawn)  fluorescence emission maximum (toluene): 508 nm
F[C@@H]1[C@H](c2ccc(-c3cnc(N4CCOCC4)nc3)cc2)[C@H](F)[C@H](F)C[C@@H]1F  hepatic clearance (liver microsome stability; cynomolgus liver microsomes; 1 µM): 27 mL/min/kg
O=C(CN1CN(c2ccccc2)C2(CCN(C(=O)c3ccc4[nH]ncc4c3)CC2)C1=O)N(CCO)CC(F)(F)F  CLint (mouse liver microsomes): 220 µL/min/mg protein
O=C(c1ccc([C@H]2[C@@H](F)[C@@H](F)C[C@@H](F)[C@H]2F)cc1)N1CCCC1  hepatic clearance (hepatocyte stability; cryopreserved rat hepatocytes; 1 µM): 47 mL/min/kg
COc1cccc(OC)c1-c1cc(C(=O)NC2(C(=O)O)C3CC4CC(C3)CC2C4)nn1-c1ccc(C(=O)N(C)CCCN(C)C(=O)[C@H](CCCCNC(=O)[C@H](CC(C)C)NC(=O)C2OC2C(=O)O)NC(=O)CN2CCN(CC(=O)[O-])CCN(CC(=O)[O-])CCN(CC(=O)[O-])CC2)cc1C(C)C.[177Lu+3] (mixture of isomers)  tumour-to-kidney ratio (mouse, HT-29 xenograft; 24 h post injection, biodistribution; reference: tumour over kidney uptake): 0.45
O=C(CN1CCOCC1)Nc1ccc(C2CCCCC2)cc1  hepatic clearance (liver microsome stability; human liver microsomes; 1 µM, without NADPH): 3.9 mL/min/kg
C=C(NC(=O)c1csc(-c2nc3c(cc2O)-c2nc(cs2)C(=O)NC(C(C)O)C(=O)NC(=C(C)OC)c2nc(cs2)C(=O)NC2c4nc(cs4)C(=O)NC(COC(=O)c4c5c6c(cccc6n4O)COC(=O)C(OC4CC(C)(O)C(N(C)C)C(C)O4)C2OC5)c2nc-3cs2)n1)C(N)=O (stereo not drawn)  AUC(0-inf) (male cynomolgus monkey, plasma; intravenous, 1 mg/kg, single dose, infusion): 8610 ng·h/mL
C=C[C@]1(C)C[C@@H](OC(=O)CSc2ccc(NC(=O)c3ccco3)cc2)[C@]2(C)[C@H](C)CC[C@]3(CCC(=O)[C@H]32)[C@@H](C)[C@@H]1O  AUC(0-24 h) (M. gallisepticum-infected chickens, plasma; intramuscular, 5 mg/kg single dose): 1490 ng·h/mL
O=C(NCc1cccc(Cl)c1)c1ccc([C@H]2[C@@H](F)[C@@H](F)C[C@@H](F)[C@H]2F)cc1  hepatic clearance (liver microsome stability; rat liver microsomes; 1 µM): 21 mL/min/kg

Some of these lines once more:
COC(=O)[C@@]1(C)C=C(C(=O)Nc2cccc(C(=O)Nc3ccc(Nc4nccc(-c5cccnc5)n4)c(C)c3)c2)C(=O)CC1  compound remaining (Wistar rat, male, plasma; 1 µM, 20 min): 32.5%
C=Cc1cccc([B-]23OC(=O)C(c4ccccc4)=N[N+]2=Cc2ccc(N(CC)CC)cc2O3)c1 (stereo not drawn)  fluorescence emission maximum (toluene): 508 nm
